Assay results pooled from the literature.
A part holds a random share of what one study measured. Positions count from the first letter of the parent shown.

Block 1
Target: ABI1, truncated, D143A, DHFR fusion (Arabidopsis thaliana)
Method: DHFR PCA, deep sequencing
Medium: yeast
Notes: methotrexate growth selection, single substitutions
Added: (+)-ABA 0.39 µM
Reference: wild-type fitted maximum
Reading: higher = stronger binding
Measurement: relative binding score
Starting sequence: PYL1, truncated, DHFR fusion (Arabidopsis thaliana); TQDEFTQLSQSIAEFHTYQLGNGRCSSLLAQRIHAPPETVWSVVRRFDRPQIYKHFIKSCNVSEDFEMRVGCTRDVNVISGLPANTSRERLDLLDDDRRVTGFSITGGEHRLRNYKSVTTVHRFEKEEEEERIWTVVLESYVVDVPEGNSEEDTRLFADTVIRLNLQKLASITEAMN; partner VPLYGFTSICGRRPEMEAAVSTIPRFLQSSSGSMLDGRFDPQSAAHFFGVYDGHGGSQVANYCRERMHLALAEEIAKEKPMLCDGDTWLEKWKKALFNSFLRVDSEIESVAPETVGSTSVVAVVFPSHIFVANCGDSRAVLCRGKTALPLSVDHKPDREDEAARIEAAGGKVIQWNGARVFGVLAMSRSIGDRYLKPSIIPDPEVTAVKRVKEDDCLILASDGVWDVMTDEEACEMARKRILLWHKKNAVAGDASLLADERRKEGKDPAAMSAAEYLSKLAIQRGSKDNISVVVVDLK
D97N: 46.8%
G148K: -5.26%
R113T: 32.4%
W41L: 5.4%
H122Y: 2.53%
N114A: -5.15%
E14G: 2.99%
C72W: 3.5%
I172P: -8.13%
R46I: -9.49%
V142I: 31.3%
P146I: 17.8%
T17W: -13.2%
S63T: 34%
V121P: -0.667%
I162R: 9.89%
S11M: 33.9%
I105N: -5.39%
E152V: 14.9%

Block 2
Target: Centromere-binding protein 1, full length, N-terminal tag (CBF1, Saccharomyces cerevisiae, UniProt P17106, residues 1-351)
Chain of UniProt P17106 (whole entry, looked up): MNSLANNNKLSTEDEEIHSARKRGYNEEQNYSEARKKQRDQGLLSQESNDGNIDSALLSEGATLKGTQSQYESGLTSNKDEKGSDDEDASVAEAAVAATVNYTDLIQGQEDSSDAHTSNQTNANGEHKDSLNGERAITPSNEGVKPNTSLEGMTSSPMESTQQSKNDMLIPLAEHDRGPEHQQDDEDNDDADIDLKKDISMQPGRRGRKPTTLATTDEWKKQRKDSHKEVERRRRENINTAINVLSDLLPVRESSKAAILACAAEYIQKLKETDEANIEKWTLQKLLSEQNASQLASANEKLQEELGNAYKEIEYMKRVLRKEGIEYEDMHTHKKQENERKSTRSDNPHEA
Method: protein-binding microarray
Molecule type: double-stranded DNA, one strand shown
Medium: in vitro
Tested at: 0.8 µM
Notes: whole 60-bp probe, no competitor
Reading: higher = stronger binding
Measurement: fluorescence intensity
All sequences stand within: … GTCTTGATTCGCTTGACGCTGCTG
TGTACGAAGCTATACGTGACCCTTATAGTAGTTAGG: 735 a.u.
CTATATTCCAGCCTTCCCACCACGTAGCTATTATTC: 541 a.u.
GAAGGAAGAAAAAGTGGTCAGGTGCAAGTATACTAG: 2510 a.u.
GAAAAAATATATGCCCACGTTTGGAGTCATCAATAG: 569 a.u.
CTACCCTTAATATGTCATGAGAATAAAATATTATTC: 620 a.u.
GAAAAATTACGGTGTGACGTAGATCTGAATTATTAG: 588 a.u.
TGTACGAAGCTATTTCATGTGTGTATAGTAGTTAGG: 540 a.u.
CCTAACTACTATACGTGACTGTTATAGCTTCGTACA: 758 a.u.
GAATTTGATCTTCAACACGTCACAGAACTGGTTTAG: 540 a.u.
GAAACTGTTGAAGTTGGCATCACGGGTGGATTCTAG: 772 a.u.
GAAGGTTCTCTGGAACAGCTGATGAAGCAGGTGTAG: 674 a.u.
CTACAAGATGCCCATCACCAAAAAATAAAAAAATTC: 513 a.u.
CTAGCCACATTTCATCAGCTGTAGATCTGGAAATTC: 525 a.u.
CTATTACCAGTATACCGTCACATGCGGTGTAACTTC: 1790 a.u.
CTACTTTGAACTTCTTACGTGAGTGGCAACGTATTC: 541 a.u.
CTAAATGGTGTCATTCACGTAAAAATGAACGAGTTC: 539 a.u.
CTACGCGCAGAAGTGTTGGTGATGGTGTCCAGGTTC: 544 a.u.
CTACCCCGTTTCCTTTTAATCACGTGCGCGGGTTTC: 17600 a.u.
CTATTGGTTTTAACTCTGGTGACTTCAAGAAGGTTC: 536 a.u.
GAAGGGATTCCCCCTCCCGTGTCTTTTTATAAATAG: 577 a.u.
CTATCCATTTATCATATAAAAAATTTTGGCTTATTC: 517 a.u.
GAAACAACAAAAATTTGCGTGATTGATAGAAGGTAG: 539 a.u.

Block 3
Target: Prothrombin, mature alpha-thrombin (F2, Homo sapiens, UniProt P00734)
Method: aptamer microarray, sandwich
Molecule type: DNA with 2'F-ANA
Medium: in vitro
Tested at: 200 nM
Notes: whole 15-mer aptamer, many near background
Added: Cy3 exosite-II aptamer, 400 nM
Reading: higher = stronger binding
Measurement: mean fluorescence intensity
Oligonucleotide: GGTTGGTGTGGTTGG
2'F-ANA at 2 3 4 5 6 7 10 15: 47.9 a.u.
2'F-ANA at 2 4 5 9 10 15: 46.9 a.u.
2'F-ANA at 1 4 11 12 13 15: 172 a.u.
2'F-ANA at 4 5 7 10 11 14: 42.5 a.u.
2'F-ANA at 5 8 10 13: 52.5 a.u.
2'F-ANA at 9 10 12 15: 216 a.u.
2'F-ANA at 5 8 9 12 13: 103 a.u.
2'F-ANA at 4 5 6 8 9 10 14 15: 50.9 a.u.
2'F-ANA at 1 2 4 6 7 8 9 10 11 12: 58.3 a.u.
2'F-ANA at 2 5 6 8 9 10 11 13: 53.1 a.u.
2'F-ANA at 1 4 6 8 10 14 15: 45.7 a.u.
2'F-ANA at 1 2 4 8 9 15: 196 a.u.
2'F-ANA at 1 2 5 6 7 8 12 15: 135 a.u.
2'F-ANA at 2 3 4 5 6 7 8 9 12 13: 118 a.u.
2'F-ANA at 2 3 4 5 7 8 9 11 12 13 15: 99.2 a.u.
2'F-ANA at 2 6 7 8 10 11 12 13 14: 78.8 a.u.
2'F-ANA at 1 2 3 4 5 6 11 13 15: 72.4 a.u.
2'F-ANA at 5 6 7 8 9 11 13 15: 55.3 a.u.
2'F-ANA at 2 3 5 7 8 9 12 14 15: 59.1 a.u.
2'F-ANA at 1 2 4 9 13 15: 79.6 a.u.
2'F-ANA at 1 2 5 6 8 9 13 15: 64.3 a.u.
2'F-ANA at 3 8 10 11 14 15: 389 a.u.
2'F-ANA at 1 4 6 8 9 10 11 14: 47.4 a.u.
2'F-ANA at 1 2 3 4 5 6 10 11 12 14: 57 a.u.
2'F-ANA at 1 6 8 10 11 12 14 15: 51.7 a.u.

Block 4
Target: CCND3, cyclin fold, Cln2 fusion (human)
Method: yeast growth competition, sequencing
Medium: yeast
Notes: weak parent motif
Reference: not given
Reading: higher = stronger binding
Measurement: normalised enrichment score
Starting sequence: GMNC docking peptide (human); KNAKRNLSSEFAN; partner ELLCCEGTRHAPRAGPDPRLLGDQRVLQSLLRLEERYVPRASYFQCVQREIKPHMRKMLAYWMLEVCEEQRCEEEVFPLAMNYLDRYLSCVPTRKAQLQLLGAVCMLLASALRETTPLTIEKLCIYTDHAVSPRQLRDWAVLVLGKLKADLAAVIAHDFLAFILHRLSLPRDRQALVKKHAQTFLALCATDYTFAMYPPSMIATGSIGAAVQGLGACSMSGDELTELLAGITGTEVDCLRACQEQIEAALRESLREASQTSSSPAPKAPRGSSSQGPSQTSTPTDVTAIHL
A3N: 0.121
N2G: 0.0434
S9N: 0.492
A3E: 0.304
E10W: 0.437
L7N: 0.391
N6Y: -0.37
K4N: -0.137
S8G: 0.491
A3Y: 0.349
A3G: 0.31
A3I: 0.377
S9W: 0.332
F11L: 0.141
F11M: 0.522
S8N: 0.385
A3V: 0.255
R5H: 0.157
K4A: 0.281
E10K: 0.121
L7G: 0.373
K4D: 0.079
F11Y: 0.223
N6E: 0.669
A12C: 0.056

Block 5
Target: Interferon regulatory factor 5, full length, phosphomimetic (IRF5, Homo sapiens, UniProt Q13568-2, residues 1-514, S451D/S453D/S456D/S462D)
Method: protein-binding microarray
Molecule type: double-stranded DNA, one strand shown
Medium: in vitro
Tested at: 940 nM top
Notes: 60-bp whole probe
Added: salmon DNA 0.4 mg/ml
Reference: random background probes
Reading: higher = stronger binding
Measurement: fitted relative affinity
All sequences stand within: GCCTAGCAC … GTCTTGATTCGCTTGACGCTGCTG
TTAGCTTTCAGTATCGATTAGTGCTAG: 6.39 z-score
GACGATATCGAGTTTCGAGACGTGCTA: 3.13 z-score
TTAGGTATCGAGTTTCGGTTAGTGCTA: 8.46 z-score
TTAGGTTTCGACTATCGATTAGTGCTA: 9.4 z-score
TGATTTTGGTCTTTCTGTTTGTGCTAG: 1.54 z-score
GTAGGACTGGGGACTGGGTTAGTGCTA: -0.679 z-score
TCACTTCTGGTGCTCATCTGGTGCTAG: 0.386 z-score
GACGAACTGGACACTGGGGACGTGCTA: -0.398 z-score
TTATGTTTCGGTTTCGGTTAGTGCTAG: 11.6 z-score
CTCTTTGTTTCACTTCCTGGTGTGCTA: 3.37 z-score
TGAGATTTCGGGTATCGATTAGTGCTA: 3.8 z-score
CTGAATGTCCTCCTCTCTCTGTGCTAG: 0.232 z-score
TTAGGACTGGATATCGGTTAGTGCTAG: -0.205 z-score
TTAGGATTCCTTTCCCTTTAGTGCTAG: 0.173 z-score
TCATTTATGCACTCTTTAACTGTGCTA: 0.68 z-score
ATAGGTATCCTACTGCTTTAGTGCTAG: -0.0205 z-score
TTAGGTATCGGGCCTGGGTTAGTGCTA: 3.9 z-score
GAATGTCCTCCTCTCTCTTTGTGCTAG: 0.399 z-score
TTAGATATCGGTCTCGGTTAGTGCTAG: 3.06 z-score
GACGGTATCGGGTTTCGGGACGTGCTA: 5.74 z-score

Excerpt of the above (block 4):
A3G: 0.31
S8N: 0.385
F11L: 0.141
L7N: 0.391
N6Y: -0.37
E10K: 0.121
